Results pooled from the literature.
Several values in a cell are separate wells, animals, samples, runs or records.

CCCCCCCCCCCC(=O)C(C)C(=O)N1CCC[C@H]1C(=O)NC(C)(C)C(=O)NC(C)(C)C(=O)NC(C)(C)C(=O)N[C@](C)(CC)C(=O)NCCC(=O)N[C@@H](C)C(=O)N[C@](C)(CC)C(=O)N[C@@H](C)C(=O)N[C@@H](CC(C)C)C(=O)N[C@](C)(CC)C(=O)NCCC(=O)N[C@@H](C)C(=O)N[C@](C)(CC)C(=O)NCCC(=O)N[C@@H](C)C(=O)NC(C)(C)C(=O)NC(C)(C)C(=O)NC(C)(C)C(=O)N[C@@H](C)C(=O)N[C@@H](CC(=O)O)C(=O)O (stereo partly drawn) — remaining intact peptide (LC-MS; buffer with human neutrophil elastase; 40 µM, 300 min, pH 7.5, 37 °C; reference: 0 h): 60.5% and 56.4% and 65.5%
C[C@H](NC(=O)CNC(=O)[C@@H]1CCCN1C(=O)[C@H](CO)NC(=O)CNC(=O)[C@H](CO)NC(=O)[C@H](C)NC(=O)[C@H](CC(N)=O)NC(=O)[C@H](C)NC(=O)[C@H](CO)NC(=O)[C@H](C)NC(=O)[C@H](CO)NC(=O)[C@@H]1CCCN1C(=O)[C@H](Cc1ccccc1)NC(=O)[C@H](C)NC(=O)[C@H](CO)NC(=O)[C@@H]1CCCN1C(=O)[C@H](Cc1ccccc1)NC(=O)[C@@H](NC(=O)[C@H](CC(=O)O)NC(=O)[C@@H](N)CO)[C@@H](C)O)C(=O)N[C@@H](CCCNC(=N)N)C(=O)N[C@@H](CO)C(=O)O — remaining peptide (CHO-K1 culture medium; 40 min): 1.02%
C#Cc1c(F)ccc2cc(O)cc(-c3ncc4c(N5CC6CCC(C5)N6C(=O)OC(C)OC(=O)C(CCCC)CCCC)nc(OC[C@@]56CCCN5C[C@H](F)C6)nc4c3F)c12 (stereo partly drawn) — remaining prodrug (simulated gastric fluid; 1 µM, 30 min, 37 °C): 105%
CC(C)[C@@H]1NC(=O)CNC(=O)[C@H](CC(N)=O)NC(=O)[C@H](CCCNC(=N)N)NC(=O)[C@H](Cc2ccc(O)cc2)NC(=O)[C@H](C(C)C)NC(=O)[C@@H](NC(=O)[C@@H](NC(=O)[C@H](CC(N)=O)NC(=O)[C@H](Cc2c[nH]c3ccccc23)NC(=O)[C@H](C)NC(=O)[C@H](Cc2ccccc2)NC(=O)CNC(=O)[C@H](CCCCN)NC(=O)[C@H](Cc2ccccc2)NC(=O)[C@H](Cc2ccccc2)NC(=O)[C@H](CCCCN)NC(=O)OCC2c3ccccc3-c3ccccc32)C(C)C)CSSC[C@@H](C(=O)N[C@@H](Cc2c[nH]cn2)C(=O)N[C@@H](CCCNC(=N)N)C(=O)N[C@@H](CCCNC(=N)N)C(=O)N[C@@H](C)C(=O)N[C@@H](CC(N)=O)C(N)=O)NC(=O)[C@H](C(C)C)NC(=O)[C@H](CCCNC(=N)N)NC1=O — remaining peptide (HPLC; mouse kidney homogenate; 2560 µM, 2.00 h, 37 °C, 50 mg/mL tissue): 78.4% and 82.2%
C#Cc1c(F)ccc2cc(O)cc(-c3ncc4c(N5CC6CCC(C5)N6C(=O)OC(C)OC(=O)C(C)(C)C)nc(OC[C@@]56CCCN5C[C@H](F)C6)nc4c3F)c12 (stereo partly drawn) — remaining prodrug (simulated gastric fluid; 1 µM, 30 min, 37 °C): 88.3%
Cc1nnc(-c2ccc(CC(=O)NCCCC[C@H](NC(=O)c3ccc(OCc4ccc(B(O)O)cc4)c(-c4nc5ccccc5c(=O)[nH]4)c3)C(=O)NCC(=O)NCC(=O)NCC(=O)N[C@@H](Cc3ccccc3)C(=O)N[C@@H](Cc3ccccc3)C(=O)O)cc2)nn1 — remaining compound (UPLC-MS/MS; human serum; 100 µM, 2 h, 37 °C): 85% and 82.7%
CSCC[C@H](NC(=O)[C@H](CCCNC(=N)N)NC(=O)[C@H](CCCNC(=N)N)NC(=O)[C@H](CCCCN)NC(=O)[C@H](C)NC(=O)[C@H](CCCNC(=N)N)NC(=O)CNC(=O)[C@@H](N)[C@@H](C)O)C(=O)N[C@@H](CCC(N)=O)C(=O)N[C@@H](Cc1ccc(O)cc1)C(=O)N[C@@H](CC(N)=O)C(=O)N[C@@H](CCCNC(=N)N)C(=O)N[C@@H](CCCNC(=N)N)C(N)=O — remaining peptide (HPLC peak area; 50% human serum; 100 µM, 2 h, pH 7.4, 37 °C; reference: 0 h): 24% and 20.5% and 22.8%
Cc1cc(-c2ccc3ccccc3c2)nnc1NCCN1CCN(C)CC1 — remaining compound (rat liver microsomes; 20 min): 84.6%
C#Cc1c(F)ccc2cc(O)cc(-c3ncc4c(N5CC6CCC(C5)N6C(=O)OC(C)OC(=O)C5CCCC5)nc(OC[C@@]56CCCN5C[C@H](F)C6)nc4c3F)c12 (stereo partly drawn) — remaining prodrug (simulated gastric fluid; 1 µM, 30 min, 37 °C): 96.1%
CC[C@H](C)[C@H](NC(=O)[C@@H](NC(=O)[C@H](CCCCN)NC(=O)[C@@H](NC(=O)CNC(=O)[C@@H](N)CCCNC(=N)N)[C@@H](C)O)C(C)C)C(=O)N[C@@H](CC(C)C)C(=O)N[C@@H](Cc1c[nH]cn1)C(=O)N[C@@H](CC(C)C)C(N)=O — remaining intact peptide (LC-MS; pronase digest; 200 µM, 1 h, pH 7.5, 37 °C, together with: pronase 2.5 µg/mL): 0%
C=CCN1CCC23c4c5ccc(OC(=O)c6ccccc6)c4OC2C(=O)CCC3(O)C1C5 (stereo not drawn) — remaining compound (rat plasma; 0 h, together with: digitonin 100 µM): 90.1% and 95.8% and 114%
C#Cc1c(F)ccc2cc(O)cc(-c3ncc4c(N5CC6CCC(C5)N6C(=O)OC(C)OC(=O)CCCCC)nc(OC[C@@]56CCCN5C[C@H](F)C6)nc4c3F)c12 (stereo partly drawn) — remaining prodrug (simulated gastric fluid; 1 µM, 30 min, 37 °C): 110%
CSCC[C@@H]1NC(=O)[C@H](Cc2ccccc2)NC(=O)CNC(=O)[C@H](NC(=O)[C@@H](N)Cc2ccc(O)cc2)CSSC[C@H](C(=O)N[C@@H](Cc2c[nH]c3ccccc23)C(=O)NCc2cc(C(F)(F)F)cc(C(F)(F)F)c2)NC(=O)[C@@H]2CCCN2C1=O — remaining intact peptide (rat plasma; 50 µg/mL, 24 h, 37 °C): 70%
CCN(CC)CCOc1ccc(-c2nnn(Cc3ccc(OC)cc3)c2N)cc1 — remaining compound (mouse liver microsomes; concentration not given, time not given): 57.2%
C[C@H](NCc1ccc(-c2ccc(C(F)(F)F)cc2)cc1)C(N)=O — remaining compound (rat liver microsomes; 1 µM, 30 min): 59.5%
C#Cc1c(F)ccc2cc(O)cc(-c3ncc4c(N5CC6CCC(C5)N6C(=O)OC(C)OC(=O)C5CCOC5)nc(OC[C@@]56CCCN5C[C@H](F)C6)nc4c3F)c12 (stereo partly drawn) — remaining prodrug (simulated gastric fluid; 1 µM, 30 min, 37 °C): 108%
CC[C@H](C)[C@H](NC(=O)[C@H](CCC(N)=O)NC(=O)[C@@H](NC(=O)[C@@H]1CCCN1[C@@H]1CN(C(=O)[C@H](CCCCN)NC(=O)[C@H](CC(N)=O)NC(=O)[C@@H](NC(=O)[C@@H](NC(=O)[C@H](CCC(N)=O)NC(=O)[C@@H](N)C(C)C)[C@@H](C)CC)[C@@H](C)CC)CC[C@H]1NS(=O)(=O)c1ccc(C)cc1)C(C)C)C(=O)N[C@H](C(=O)N[C@@H](Cc1ccc(O)cc1)C(=O)N[C@@H](CCCCN)C(N)=O)C(C)C — remaining intact peptide (LC-MS; pronase digest; 200 µM, 30 min, pH 7.5, 37 °C, together with: pronase 2.5 µg/mL): 84%
C=CCN1CCC23c4c5ccc(OC(=O)c6ccc(N)cc6)c4OC2C(=O)CCC3(O)C1C5 (stereo not drawn) — remaining compound (rat plasma; 0 h, no inhibitor): 102% and 92.8% and 105%
CC[C@H](C)[C@H](NC(=O)[C@@H](NC(=O)[C@H](CCCCN)NC(=O)[C@@H](N)[C@@H](C)O)C(C)C)C(=O)N[C@@H](CC(C)C)C(=O)N[C@@H](Cc1c[nH]cn1)C(N)=O — remaining intact peptide (LC-MS; pronase digest; 200 µM, 1 h, pH 7.5, 37 °C, together with: pronase 2.5 µg/mL): 21%
C#Cc1c(F)ccc2cc(O)cc(-c3ncc4c(N5CC6CCC(C5)N6C(=O)OC(OC(=O)CCC)C5CCCCC5)nc(OC[C@@]56CCCN5C[C@H](F)C6)nc4c3F)c12 (stereo partly drawn) — remaining prodrug (simulated gastric fluid; 1 µM, 30 min, 37 °C): 103%
C=CCN1CCC23c4c5ccc(OC(=O)c6ccc(NC(=O)OC(C)(C)C)cc6)c4OC2C(=O)CCC3(O)C1C5 (stereo not drawn) — remaining compound (human plasma; 24 h): 42.8% and 41.1% and 40%
